# Published values collected from several papers.
# Lines come from different studies, so protocols differ. Numbers after ± are the reported error.
# HTR2A: 5-hydroxytryptamine receptor 2A (HTR2A, Homo sapiens, UniProt P28223)
# GABA-A receptor; alpha-1/beta-2/gamma-2: GABA-A receptor; alpha-1/beta-2/gamma-2 (Homo sapiens, UniProt P14867+P18507+P47870)
Compound,target,test,test system,setting,EC50
CCCN(C/C=C/I)C1CCc2ccc(O)cc2C1 (stereo not shown),"Alpha-2C adrenergic receptor (ADRA2C, Homo sapiens, UniProt P18825)","G protein activation, agonist, BRET, refers to: Gαi1","HEK293T, transfected",Emax below 50%,0.011 ± 0.004 µM
[Cl-].[Cl-].[Zn+2],"Glutamate receptor ionotropic, kainate 3 (Rattus norvegicus, UniProt P42264)","ion current, positive modulator, whole-cell patch clamp",HEK293 cells,"biphasic dose-response curve, with: glutamate 10 mM",~20 µM
Nc1ncnc2c1ncn2[C@@H]1O[C@H](COP(=O)(O)OP(=O)(O)OP(=O)(O)O)[C@@H](O)[C@H]1O,"cAMP-dependent protein kinase catalytic subunit alpha (Prkaca, Mus musculus, UniProt P05132)","binding of FAM-SMO peptide, activator, fluorescence polarization",,pH 7,0.59 µM
CCCCC/C=C\C/C=C\C/C=C\C/C=C\CCCC(=O)Nc1ccc(O)cc1,"Sterol carrier protein 2 (Homo sapiens, UniProt P22307)","NBDS displacement, fluorescent probe displacement",,"50% of maximum displacement, with: NBDS 500 nM",3.21 ± 0.07 µM
O=C1Nc2cc(Cl)c(Cl)cc2N2CCNCC12 (stereo not shown),"5-hydroxytryptamine receptor 2C (HTR2C, Homo sapiens, UniProt P28335)","calcium signal, agonist",,,0.0015 µM
CC(C)N(C)CCc1c[nH]c2ccccc12,HTR2A,"calcium signal, agonist",,,0.0449 µM
O=C1c2ccccc2-n2c1nc1ccccc1c2=O,"Aryl hydrocarbon receptor (Ahr, Mus musculus, UniProt P30561)","reporter gene, activator",H1L7.5c3 (mouse),6 h,0.035 µM
CCCCCc1cc(O)c(C/C=C(\C)CCC=C(C)C)c(O)c1C(=O)O,GABA-A receptor; alpha-1/beta-2/gamma-2,"potentiation of GABA-evoked current, positive allosteric modulator, two-electrode voltage clamp",Xenopus oocytes,with: GABA 15 µM,0.813 µM
CC[C@H](C)[C@H](NC(=O)[C@H](Cc1ccccc1)NC(=O)[C@H](CC(=O)O)NC(=O)[C@H](CCCNC(=N)N)NC(=O)[C@@H](NC(=O)[C@@H](NC(=O)[C@H](CCCNC(=N)N)NC(=O)[C@H](CO)NC(=O)[C@@H](NC(=O)[C@H](CCCNC(=N)N)NC(=O)[C@H](CCSC)NC(=O)[C@@H](N)CCC(=O)O)[C@@H](C)CC)[C@@H](C)CC)[C@@H](C)CC)C(=O)N[C@@H](Cc1ccccc1)C(=O)N[C@@H](CC(C)C)C(=O)N[C@@H](CCCNC(=N)N)C(=O)O,"histidine kinase ComD (Streptococcus pneumoniae serotype 2, UniProt A0A0H2ZM50)",,Streptococcus pneumoniae,,> 1 µM
CCCN(CCC)CCc1c[nH]c2ccc(OC)cc12,HTR2A,"β-arrestin recruitment, agonist",,,0.993 µM
Cc1ncsc1-c1ccc([C@H](C)NC(=O)[C@@H]2C[C@@H](O)CN2C(=O)[C@@H](NC(=O)CNC(=O)c2ccc(F)c(-c3ccc(N4C[C@@H](C)N(C)[C@@H](C)C4)c(NC(=O)c4c[nH]c(=O)cc4C(F)(F)F)c3)c2)C(C)(C)C)cc1,"WDR5/DCAF1 (Homo sapiens, UniProt P61964+Q9Y4B6)","HiBiT-WDR5 degradation, degrader",MV4-11 expressing exogenous HiBiT-WDR5,24 h,0.0038 ± 0.001 µM
CC[C@H](C)[C@H](NC(=O)[C@H](Cc1ccccc1)NC(=O)[C@H](Cc1c[nH]cn1)NC(=O)[C@@H](NC(=O)[C@H](CC(C)C)NC(=O)[C@H](CCCNC(=N)N)NC(=O)[C@@H](NC(=O)[C@@H](N)CCC(=O)O)[C@@H](C)CC)[C@@H](C)O)C(=O)N[C@@H](Cc1ccccc1)C(=O)N[C@@H](Cc1ccccc1)C(=O)N[C@@H](CC(N)=O)C(=O)N[C@@H](CC(C)C)C(=O)N[C@@H](Cc1ccccc1)C(=O)N[C@@H](CCCCN)C(=O)N[C@@H](CCCNC(=N)N)C(=O)N[C@@H](CCCNC(=N)N)C(=O)O,"histidine kinase ComD (Streptococcus pneumoniae serotype 4, UniProt A0A0H2US84)","reporter gene, agonist","Streptococcus pneumoniae, TIGR4 comX::lacZ","30 min, pH 7.3, 37 °C",> 10 µM
COC1=Cc2ccnc3ccnc(c23)C1=O,"Delta-type opioid receptor (OPRD1, Homo sapiens, UniProt P41143)","calcium signal, agonist",,,2.3 µM
COc1ccc2[nH]cc(CCN)c2c1,"5-hydroxytryptamine receptor 1A (HTR1A, Homo sapiens, UniProt P08908)","calcium signal, agonist",,,0.183 µM
CCCC(=O)N[C@H]1CCOC1=O,"HTH-type quorum-sensing regulator RhlR (rhlR, Pseudomonas aeruginosa, UniProt P54292)","reporter gene, agonist",PAO-JP2 prhlI-LVAgfp,with: OdDHL 100 nM,30.6 µM
CC[C@H](C)[C@H](NC(=O)[C@H](CCCNC(=N)N)NC(=O)[C@H](CCSC)NC(=O)[C@@H](N)CCC(=O)O)C(=O)N[C@@H](CO)C(=O)N[C@@H](CCCNC(=N)N)C(=O)N[C@H](C(=O)N[C@H](C(=O)N[C@@H](CC(C)C)C(=O)N[C@@H](CC(=O)O)C(=O)N[C@@H](Cc1ccccc1)C(=O)N[C@@H](CC(C)C)C(=O)N[C@@H](CC(C)C)C(=O)N[C@@H](CCC(N)=O)C(=O)N[C@@H](CCCNC(=N)N)C(=O)O)[C@@H](C)CC)[C@@H](C)CC,"histidine kinase ComD (Streptococcus pneumoniae serotype 2, UniProt A0A0H2ZM50)",,Streptococcus pneumoniae,,> 1 µM
CC(C)NCCc1c[nH]c2ccccc12,HTR2A,"β-arrestin recruitment, agonist",,,> 10 µM
C[C@@]1(O)CC[C@@]2(C)[C@@H](CC[C@@H]3[C@@H]2CC[C@]2(C)[C@@H](c4cc(CO)on4)CC[C@@H]32)C1,GABA-A receptor; alpha-1/beta-2/gamma-2,"GABA current potentiation, positive modulator, two-electrode voltage clamp",Xenopus laevis oocytes,"30 s preincubation, with: GABA EC10",1.33 ± 0.25 µM
O=C(c1ccc(F)cc1)N1CCc2nc(COc3ccccc3)oc2C1,"Metabotropic glutamate receptor 5 (Grm5, Rattus norvegicus, UniProt P31424)","calcium mobilization, positive allosteric modulator",rat cortical astrocytes,with: glutamate,0.317 µM
C=C1C(=O)N[C@@H](C)C(=O)N(C)[C@@H](C)C(=O)N[C@@H]([C@H](OC(=O)[C@@H](NC(=O)CC)[C@H](O)C(C)C)C(C)C)C(=O)N(C)[C@@H]([C@@H](C)OC)C(=O)O[C@H](C(C)C)[C@H](NC(C)=O)C(=O)O[C@H](Cc2ccccc2)C(=O)N1C,"Gnaq, with Gβ1γ2 (Mus musculus, UniProt P21279)","Gβ1γ2–Gαq association, split-luciferase complementation",HEK293,"18 h, wild-type Gαq",0.003 µM
CC[C@H](C)[C@H](NC(=O)[C@H](CCCNC(=N)N)NC(=O)[C@H](CO)NC(=O)[C@H](CC(C)C)NC(=O)[C@H](CCCNC(=N)N)NC(=O)[C@H](CCSC)NC(=O)[C@@H](N)CCC(=O)O)C(=O)N[C@H](C(=O)N[C@@H](CC(C)C)C(=O)N[C@@H](CC(=O)O)C(=O)N[C@@H](Cc1ccccc1)C(=O)N[C@@H](CC(C)C)C(=O)N[C@@H](Cc1ccccc1)C(=O)N[C@@H](CCC(N)=O)C(=O)N[C@@H](CCCNC(=N)N)C(=O)O)[C@@H](C)CC,"histidine kinase ComD (Streptococcus pneumoniae serotype 2, UniProt A0A0H2ZM50)",,Streptococcus pneumoniae,,> 1 µM
CC[C@H](C)[C@H](NC(=O)[C@H](Cc1c[nH]cn1)NC(=O)[C@@H](NC(=O)[C@H](CC(C)C)NC(=O)[C@H](CCCNC(=N)N)NC(=O)[C@@H](NC(=O)[C@@H](N)CCC(=O)O)[C@@H](C)CC)[C@@H](C)O)C(=O)N[C@@H](Cc1ccccc1)C(=O)N[C@@H](Cc1ccccc1)C(=O)N[C@@H](Cc1ccccc1)C(=O)N[C@@H](CC(N)=O)C(=O)N[C@@H](Cc1ccccc1)C(=O)N[C@@H](Cc1ccccc1)C(=O)N[C@@H](CCCCN)C(=O)N[C@@H](CCCNC(=N)N)C(=O)N[C@@H](CCCNC(=N)N)C(=O)O,"histidine kinase ComD (Streptococcus pneumoniae serotype 4, UniProt A0A0H2US84)","reporter gene, agonist","Streptococcus pneumoniae, TIGR4 comX::lacZ","30 min, pH 7.3, 37 °C",> 10 µM
CNCCc1c[nH]c2ccc(OC)cc12,HTR2A,"β-arrestin recruitment, agonist",,,0.611 µM
N[C@@H](CCC(=O)O)C(=O)O,"Metabotropic glutamate receptor 3 (Grm3, Rattus norvegicus, UniProt P31422)","ion flux, agonist",,,0.565 µM
CC[C@H](C)[C@H](NC(=O)[C@H](Cc1ccccc1)NC(=O)[C@H](CCC(=O)O)NC(=O)[C@H](CCCCN)NC(=O)[C@H](C)NC(=O)[C@H](C)NC(=O)[C@H](CCC(N)=O)NC(=O)CNC(=O)[C@H](CCC(=O)O)NC(=O)[C@H](CC(C)C)NC(=O)[C@H](Cc1ccc(O)cc1)NC(=O)[C@H](CO)NC(=O)[C@H](CO)NC(=O)[C@@H](NC(=O)[C@H](CC(=O)O)NC(=O)[C@H](CO)NC(=O)[C@@H](NC(=O)[C@H](Cc1ccccc1)NC(=O)[C@@H](NC(=O)CNC(=O)[C@H](CCC(=O)O)NC(=O)[C@H](C)NC(=O)N(N)Cc1c[nH]cn1)[C@@H](C)O)[C@@H](C)O)C(C)C)C(=O)N[C@@H](C)C(=O)N[C@@H](Cc1c[nH]c2ccccc12)C(=O)N[C@@H](CC(C)C)C(=O)N[C@H](C(=O)N[C@@H](CCCNC(=N)N)C(=O)NCC(=O)N[C@@H](CCCNC(=N)N)C(=O)NCC(=O)O)C(C)C,"Glucagon-like peptide 1 receptor (GLP1R, Homo sapiens, UniProt P43220)","reporter gene, agonist, luciferase",,,0.0003 to 0.0007 µM

# For quick reference, copied from above:
Compound,target,test,test system,setting,EC50
CC[C@H](C)[C@H](NC(=O)[C@H](Cc1ccccc1)NC(=O)[C@H](Cc1c[nH]cn1)NC(=O)[C@@H](NC(=O)[C@H](CC(C)C)NC(=O)[C@H](CCCNC(=N)N)NC(=O)[C@@H](NC(=O)[C@@H](N)CCC(=O)O)[C@@H](C)CC)[C@@H](C)O)C(=O)N[C@@H](Cc1ccccc1)C(=O)N[C@@H](Cc1ccccc1)C(=O)N[C@@H](CC(N)=O)C(=O)N[C@@H](CC(C)C)C(=O)N[C@@H](Cc1ccccc1)C(=O)N[C@@H](CCCCN)C(=O)N[C@@H](CCCNC(=N)N)C(=O)N[C@@H](CCCNC(=N)N)C(=O)O,"histidine kinase ComD (Streptococcus pneumoniae serotype 4, UniProt A0A0H2US84)","reporter gene, agonist","Streptococcus pneumoniae, TIGR4 comX::lacZ","30 min, pH 7.3, 37 °C",> 10 µM
CC(C)N(C)CCc1c[nH]c2ccccc12,HTR2A,"calcium signal, agonist",,,0.0449 µM
CC[C@H](C)[C@H](NC(=O)[C@H](Cc1ccccc1)NC(=O)[C@H](CC(=O)O)NC(=O)[C@H](CCCNC(=N)N)NC(=O)[C@@H](NC(=O)[C@@H](NC(=O)[C@H](CCCNC(=N)N)NC(=O)[C@H](CO)NC(=O)[C@@H](NC(=O)[C@H](CCCNC(=N)N)NC(=O)[C@H](CCSC)NC(=O)[C@@H](N)CCC(=O)O)[C@@H](C)CC)[C@@H](C)CC)[C@@H](C)CC)C(=O)N[C@@H](Cc1ccccc1)C(=O)N[C@@H](CC(C)C)C(=O)N[C@@H](CCCNC(=N)N)C(=O)O,"histidine kinase ComD (Streptococcus pneumoniae serotype 2, UniProt A0A0H2ZM50)",,Streptococcus pneumoniae,,> 1 µM
